Assay results gathered from unrelated publications.
Parts stem from different laboratories: compare values within a part only. Positions count from the first letter of the parent shown.

Series 1 — technique: RNA Bind-n-Seq; molecule type: RNA; medium: in vitro; concentration: 100 nM; baseline: input RNA pool; reading: higher = stronger binding
Target: RING finger protein unkempt homolog, zinc fingers 1-6, SBP tag (UNK, Homo sapiens, UniProt Q9C0B0, residues 30-357)
Chain of UniProt Q9C0B0 (30-357, looked up): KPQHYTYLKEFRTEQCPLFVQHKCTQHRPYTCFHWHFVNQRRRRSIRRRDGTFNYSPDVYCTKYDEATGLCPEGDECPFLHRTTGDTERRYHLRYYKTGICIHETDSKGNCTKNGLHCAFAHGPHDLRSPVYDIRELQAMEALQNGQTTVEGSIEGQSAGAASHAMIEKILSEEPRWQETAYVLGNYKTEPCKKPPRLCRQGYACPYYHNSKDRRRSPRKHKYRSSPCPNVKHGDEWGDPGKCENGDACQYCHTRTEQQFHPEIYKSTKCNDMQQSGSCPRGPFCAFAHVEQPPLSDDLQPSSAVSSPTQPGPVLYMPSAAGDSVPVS
Notes: RNA with constant flanks, vertebrate orthologous sites, ends assumed
All sequences stand within: GGGAGUUCUACAGUCCGACGAUC … CAACAGAGGAUUGAGCAUCA
`AAUAGUUUUAAGCUUGUUUGCACAGUUUUUUUUUUCCAUUGGAGAUGGAAUUCAUUGCCUUAGGUCUUUUUAAUAGUGUAUUGUUAUUGUUGGGCUGGCUCUAUGCUUGAAAACCAGUUU` has a bound/input enrichment of 2.26 ratio.
With `UGGCGAUGAUUUUUUCCACUGGUUUUUGCUUAAAAGAAGAAGUGGACCCAUGCACAUUUAUAUAGCUUUCUAAUAGCGUUAACCAAUGCCUUUUUAGACAUAUUUUUGAUGUAUAUAUCU` the bound/input enrichment was 0.951 ratio.
`CUCUAUGGGCCUCGCAGAGUUGAAAUAAUGGAAGAGGAAAGUGAACAGUAAUCUUCGUUGUAAUAUUUAUGCUUAGGUGUGAAAUAAAUACUAUUUGUUGAUCAUUUUGGUAAUCCAGAA` gave a bound/input enrichment of 0.304 ratio.
`UGUUAGUUAUUGAUGGACUCUAUUUUUUUAUUAUUACUUGGACCUUGGUCGUUUUUAUACUAGCAAAAUGUCUUGUUUUAAUUUGUGUUUUUUGGGGAGGGAGGGAGUGAACUUGCUGAU` has a bound/input enrichment of 1.87 ratio.
`AAUGACAGCAAAAGAGCCAAGCAGGAGCAUUUGAGUUUCUUUUGUAAAAUGUAAAAUGACUAAAUUUAGACUGUCUCUCCUUGUACAGUUUUAAAAAUAAAUACCUCAGUGCUGUUUUCC` has a bound/input enrichment of 0.491 ratio.
For `CCCCGGUUUUAGAUGUGAUAUCUAGGCUUUCAUUCCAGUUUGUUUUGUCUUUUUCUUGUUUAGAUACCACCUUUUAAAUUCUUGCAUUUUAGUAAGAAAGCUACCUUUUUAUGGAUGUUA`, the bound/input enrichment was 0.869 ratio.
For `CAAGACUUAUUGUGGCAUAUAGUCAACAUGGAAGUAGACCAGCUCUGCCGAUUUGAAAUUUAGAUUUUUUAAAAAUUAUGUACUGGGGACAGGUCUUUGUCGCUUUACAUUGCUUCCUAG`, the bound/input enrichment was 3.2 ratio.
`AUCUUUUUAACUUCAUGUUGGCCUGCACAUGAUUCGAGUCCUGUGUUGUCUUUUUCUUACACAGUUUGUUUGUCACUCUUUUUUUUCUUUCUCUCAGGCGAAGGGCUAGAGUUAAAAAAA` has a bound/input enrichment of 0.622 ratio.
`UAUUCAGUCAUGGAGAAAAAGAUAUUAAAAUAAUUUUAUGGCACUGCUCUUUACUUUUGUUAGUUUUAUAAAAGUUAGGGUUCUUGUUUACAAACAACAGGAGCUGACUAUUGAGGAGAA` gave a bound/input enrichment of 0.467 ratio.
The bound/input enrichment of `AACUUAAUAUUGUGGCAUAUAGUCAACAUGGAUGUAGACCAGCUCUGCUGAUUUGAAAUUUAGAUAUUUUUAAUUAUGUACUGGGGACAGGUUUUUGUCGCUUUACAUUGCUUCCUAGUU` is reported as 2.69 ratio.
`UCAUCUCAUUUUAUAUGUCCAAAAAAGGUUUUGAAUUUUUAAACACUUGCUAGUUUUAGUUAGCUCUGCCCUCAUGAAGUAUUACUAUAAUUCAUCACAAACAGAUAUCUGUCUGAAUUA` has a bound/input enrichment of 0.658 ratio.

Series 2 — technique: RNA Bind-n-Seq; molecule type: RNA; medium: in vitro; concentration: 365 nM; baseline: no-protein control; reading: higher = stronger binding
Target: RNA binding protein fox-1 homolog 2, RRM domain, GST-SBP tag (RBFOX2, Homo sapiens, UniProt O43251-10, residues 100-194)
Notes: natural RNA segment, single round, ends assumed
All sequences stand within: GGGAGUUCUACAGUCCGACGAUC … UGGAAUUCUCGGGUGCCAA
Residues (chain): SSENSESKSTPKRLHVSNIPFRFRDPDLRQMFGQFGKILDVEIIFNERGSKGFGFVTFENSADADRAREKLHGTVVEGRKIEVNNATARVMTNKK
Under “RBNS enrichment (R)”, `UAAAAAUGAGACCCCCAACUACCUAAAGCACCCAUCUUUGUAACUAGACCAUAACUAUACUGCUUUCAUCUGGUUCACCCCCUCUAUGUCAAGAGUCAAACUGUGUGAGA` is recorded as 0.417.
`CCAUAGUAUGCUCUGAGUAGCUUUACACUGCCUGGUACUGAUAGUAGUGGCUCGAUUUUUAAGAGCCUUCAAUUGUAGAUGAACAUCUCUGUUAUUUAUCCCUCAUUCAU`: “RBNS enrichment (R)” 0.51.
`UUGAGGUUGAGCCUUUUUGAGUAUUUAAGAUAUAUAUACCAACGAAACUAUUCUCGCAAGGAAAACAUUGCCACCAUUUGUAGAACAUGUAAUCUUCAAGUAUGUGCUAU`: “RBNS enrichment (R)” 0.584.
`UACCGAGCUACUGGUCCUAAGAUGUUUCAGACUUAAAGCAAAUGCAUGUGUUACACCCAUCCCGUUUACCAUAUUACCAAAUCCUCACAAGAGGUUUCAAGGAACUGUUU`: “RBNS enrichment (R)” 7.59.
Under “RBNS enrichment (R)”, `UGUAUGCAUUCACCUUGCCUCUUGCACAAAUGUCAAAAAAAAGAUGGUAAUAUCUCAAAGAAAUGAACUUGUAGAUUACCAAGCAGUUUGCUAAAAAUUCAAUCUUUGAC` is recorded as 0.443.
For `CUUAGCCUGCCCUGCUUCCAAGCGACGGCCAUCCCAGUAGGGGACUUUCCCACACUGUGCCUUUACGAUCAGCGUGACAGAGUAGAAGCUGGAGUGCCUCACCACACGGC`, “RBNS enrichment (R)” read 0.324.
For `GUUGCCGAGCCGAGAGCAUUGGAUCCUCCCCGACUGUGGCUAGUUGUCUGUCCGGUGGCUGGGAGGGGGUGUGGUGGGAAAAAGUCGGAAUCUCUGCAAUCUGUGUCAUG`, “RBNS enrichment (R)” read 0.76.
`AUUUAGCACGUUAUAGGAAAUUAUAAGAGAUUAUAACCAAAUGGAGCGUUAUUAACCCAAAGCAGAACAAUGGUGCCAAUUUGAUUAUUAACUUAAAAAAAUAUACACUG` — result for “RBNS enrichment (R)”: 0.511.
`AGGGAAAGGUGUUUGCUGGAGUGACUUCCGUGCAGAGUGGUCUAUAGAGAAACUACAGCUCUGCCCAUUGUCCUGGGGUCCUGGAACUUCGUCCAGUGUUAAGAACUGAG`: “RBNS enrichment (R)” 0.825.
For `CCAUGGCCACUCCCUGCCCCCAGCCUGGCUGGACAGCAAGGAAUCCACAGCCCACACGUGAGCUCCCUCCUCACCCCCAGGCAGGGAAGCCCCUCCUGCCAGUCCCUGUC`, “RBNS enrichment (R)” read 0.32.
`UCCUCCCAUAACUGCAGGUGGAUUCCACCUGGGGAAUGAGGCUGCGUGUCGGGCGUCUGCUGGCCCUGAGACAUCCAGUCUUCCACACUCAACUGUGGGAUGGGAGGGUG` — result for “RBNS enrichment (R)”: 0.518.
For `CCUUAAGCCCCAAGUAUAAAAGAGCUUAGGGGAAGGUGUAAGGGCCACAGGCUGGAAGCUGACAGCCUAGCAGGCACUCCCUUCCUCUCUUCCUUCUGCUGUGUUCCUAU`, “RBNS enrichment (R)” read 0.43.

Series 3 — target: CCNB3, cyclin fold, Cln2 fusion (human); technique: yeast growth competition, sequencing; medium: yeast; notes: weak parent motif; baseline: not given; reading: higher = stronger binding
Parent: PKN2 docking peptide (human); DSTVTKLDFDLEP
For `DSTVTKLAFDLEP [D8A]`, “normalised enrichment score” read -0.125.
For `DSTVTALDFDLEP [K6A]`, “normalised enrichment score” read 0.181.
`DATVTKLDFDLEP [S2A]`: “normalised enrichment score” -0.238.
Under “normalised enrichment score”, `DSTATKLDFDLEP [V4A]` is recorded as -0.251.
Under “normalised enrichment score”, `DSTVTKADFDLEP [L7A]` is recorded as 0.0766.
`DSTVTKLDADLEP [F9A]` — result for “normalised enrichment score”: -0.201.
`DSTVTKLDFDLEA [P13A]`: “normalised enrichment score” 0.0131.

Series 4 — technique: DHFR PCA, deep sequencing; medium: yeast; added: (+)-ABA 0.11 µM; baseline: wild-type fitted maximum; reading: higher = stronger binding
Target: ABI1, truncated, D143A, DHFR fusion (Arabidopsis thaliana)
Notes: methotrexate growth selection, single substitutions
Parent: PYL1, truncated, DHFR fusion (Arabidopsis thaliana); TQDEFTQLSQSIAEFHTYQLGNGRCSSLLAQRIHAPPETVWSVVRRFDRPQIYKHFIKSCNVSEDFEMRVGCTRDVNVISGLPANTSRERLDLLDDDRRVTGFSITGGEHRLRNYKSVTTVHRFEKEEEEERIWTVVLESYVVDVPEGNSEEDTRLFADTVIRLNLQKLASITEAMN; partner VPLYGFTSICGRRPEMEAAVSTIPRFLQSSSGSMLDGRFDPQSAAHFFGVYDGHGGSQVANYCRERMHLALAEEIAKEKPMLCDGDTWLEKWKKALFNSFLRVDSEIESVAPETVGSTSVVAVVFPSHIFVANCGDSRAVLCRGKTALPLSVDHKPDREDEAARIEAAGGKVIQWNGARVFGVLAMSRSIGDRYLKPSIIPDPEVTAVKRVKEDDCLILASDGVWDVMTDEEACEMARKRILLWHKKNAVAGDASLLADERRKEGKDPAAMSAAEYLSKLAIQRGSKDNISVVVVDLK
`E67N`: “relative binding score” 20%.
`F157G` — result for “relative binding score”: -0.368%.
`D92T`: “relative binding score” -4.65%.
Under “relative binding score”, `E89I` is recorded as -5.34%.
`W134V`: “relative binding score” 23.6%.
Under “relative binding score”, `P36L` is recorded as 16.4%.
For `F15D`, “relative binding score” read 2.05%.
`S27D`: “relative binding score” 4.89%.
`G81E` — result for “relative binding score”: 10.3%.
For `R45I`, “relative binding score” read -4.06%.
`R88E` — result for “relative binding score”: 14.9%.
Under “relative binding score”, `D92W` is recorded as 2.08%.
Under “relative binding score”, `K54F` is recorded as 0.758%.
Under “relative binding score”, `G81V` is recorded as 3.12%.
`I105P`: “relative binding score” -9.42%.
`Y18K`: “relative binding score” -1.82%.
Under “relative binding score”, `I133Y` is recorded as 27.2%.
For `K126V`, “relative binding score” read 43.8%.
For `H34T`, “relative binding score” read -0.672%.
Under “relative binding score”, `R49G` is recorded as -0.452%.
Under “relative binding score”, `S104A` is recorded as -0.57%.

Series 5 — technique: RNA Bind-n-Seq; molecule type: RNA; medium: in vitro; concentration: 200 nM; notes: whole 134-nt RNA, ends assumed; added: 150 mM LiCl; baseline: input library; reading: higher = stronger binding; each molecule: 7-deaza-guanosine replaces G
Target: Ras GTPase-activating protein-binding protein 1, full length (G3BP1, Homo sapiens, UniProt Q13283)
Chain of UniProt Q13283 (whole entry, looked up): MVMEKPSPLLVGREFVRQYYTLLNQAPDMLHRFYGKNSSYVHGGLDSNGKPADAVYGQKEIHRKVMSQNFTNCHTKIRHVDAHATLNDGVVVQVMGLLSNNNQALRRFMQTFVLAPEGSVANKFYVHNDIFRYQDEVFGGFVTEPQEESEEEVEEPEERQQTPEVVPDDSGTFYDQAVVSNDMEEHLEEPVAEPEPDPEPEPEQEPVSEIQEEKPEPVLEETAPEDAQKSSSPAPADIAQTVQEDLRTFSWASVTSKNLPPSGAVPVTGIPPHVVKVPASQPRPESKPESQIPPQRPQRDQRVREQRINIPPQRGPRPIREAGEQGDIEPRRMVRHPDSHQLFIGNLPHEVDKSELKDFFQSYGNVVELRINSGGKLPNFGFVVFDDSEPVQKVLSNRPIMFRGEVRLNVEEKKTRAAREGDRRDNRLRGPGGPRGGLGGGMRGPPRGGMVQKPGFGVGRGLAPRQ
All sequences stand within: GGGAGUUCUACAGUCCGACGAUC … UGGAAUUCUCGGGUGUCAAGG
`CAAGUCCUGUGCUACACAUCGUAUGUACCGAAUCGGGGAGGGGUUUGGGGUGGGGAAAGUAUUAUGUUACGCCGUUCGGAUCUGCACUUC` gave a log2 enrichment of 0.343.
With `UGGGAGGUGGAUUUUGUUUAUUUUUUUUGCUCAUUUCCAGGGGUGGGAAUUUUUUUUUAAUAUGUGUCAUGAAUAAAGUUGUUUUUGAAA` the log2 enrichment was 0.54.
With `UUCAAAGCGUUCGAAUGAGGAGACUGAUGACUAUGGGAAGGCGCAGGUAGCCAAAAGCAGCAGCAAGGAAUCCAGGUCAUCCAAGCUCCA` the log2 enrichment was -1.91.
With `UCAAGUCCUGUGCUACACAUCGUAUGUACCGAAUCGGUUUGGAAAAAGGUUUGGAAAGUAUUAUGUUACGCCGUUCGGAUCUGCACUUCC` the log2 enrichment was -1.32.
`CAAGUCCUGUGCUACACAUCGUAUGUACCGAAUCGGGUGGGUGGGAAAAAAAGGGAAAGUAUUAUGUUACGCCGUUCGGAUCUGCACUUC` has a log2 enrichment of -0.276.
`UGGGAGGUGGAUUUUGUUUAUUUUUUUAGCUCAUUUCCAGGGGUGGGAAUUUUUUUUUAAUAUGUGUCAUGAAUAAAGUUGUUUUUGAUA` has a log2 enrichment of -0.37.
The log2 enrichment of `GGUGCGGCUCUAUGAGUGGACAACAGAGAAGGAGCUGCGCACUGAGUGCAACCACUACAACAACAUCAUGGCCCUCUACCUGAAGACCAA` is reported as -0.599.
For `UGGCUCUGGUGGCAUGCGGGGAGGAAGAGGUGGCCUCAUGGAUCGUGGUGGUCCCGGUGGAAUGUUCAGAGGUGGCCGUGGUGGAGACAG`, the log2 enrichment was 0.0949.
`GUCCUGUGCUACACAUCGUAUGUACCGAAUCGGGUUUUUUUGGGUUUUUGGGUUUGGGAAAGUAUUAUGUUACGCCGUUCGGAUCUGCAC` has a log2 enrichment of 0.305.
`UGUGCUACACAUCGUAUGUACCGAAUCGGGGCCCCCCCGGCCCCCCCGGGGCCCCCCCGGGGAAAGUAUUAUGUUACGCCGUUCGGAUCU` has a log2 enrichment of 0.874.
`UGGGAGGUGGAUUUUGUUUAUUUUUUUAGCUCAUUUCCAGGGGUGGGAAUUUUUUUUUAAUAUGUGUCAUGGAUAAAGUUGUUUUUGAAA` gave a log2 enrichment of 0.101.

For quick reference, copied from above (series 4):
`F157G` — result for “relative binding score”: -0.368%.
`D92T`: “relative binding score” -4.65%.
Under “relative binding score”, `E89I` is recorded as -5.34%.
`W134V`: “relative binding score” 23.6%.
Under “relative binding score”, `P36L` is recorded as 16.4%.
For `F15D`, “relative binding score” read 2.05%.
`S27D`: “relative binding score” 4.89%.
`G81E` — result for “relative binding score”: 10.3%.
For `R45I`, “relative binding score” read -4.06%.
